Published values gathered from unrelated publications.
Protocols differ between the studies behind these lines. Values joined by “and” are separate records of one study, mostly repeats; a detail may differ. ± marks the error that the study gave.
Genome polyprotein NS3 helicase domain: Genome polyprotein, NS3 helicase domain (Hepatitis C virus genotype 1b, UniProt Q9WMX2)
PHKG2: Phosphorylase b kinase gamma catalytic chain, liver/testis isoform (PHKG2, Homo sapiens, UniProt P15735)
Chain of UniProt P15735 (whole entry, looked up): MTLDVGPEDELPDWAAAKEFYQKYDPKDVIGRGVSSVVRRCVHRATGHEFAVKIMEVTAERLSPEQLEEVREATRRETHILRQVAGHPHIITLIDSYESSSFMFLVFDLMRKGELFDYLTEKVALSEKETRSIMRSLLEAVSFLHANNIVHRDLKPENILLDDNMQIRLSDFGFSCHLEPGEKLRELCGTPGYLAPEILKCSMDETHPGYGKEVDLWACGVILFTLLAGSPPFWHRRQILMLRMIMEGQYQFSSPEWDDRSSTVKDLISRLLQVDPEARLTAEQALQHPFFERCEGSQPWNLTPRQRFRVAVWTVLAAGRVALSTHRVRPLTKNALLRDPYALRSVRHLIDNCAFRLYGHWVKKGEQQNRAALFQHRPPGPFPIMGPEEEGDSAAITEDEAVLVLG
XDH oxidase form: Xanthine dehydrogenase/oxidase, oxidase form (XDH, Bos taurus, UniProt P80457)
Chain of UniProt O15264 (whole entry, looked up): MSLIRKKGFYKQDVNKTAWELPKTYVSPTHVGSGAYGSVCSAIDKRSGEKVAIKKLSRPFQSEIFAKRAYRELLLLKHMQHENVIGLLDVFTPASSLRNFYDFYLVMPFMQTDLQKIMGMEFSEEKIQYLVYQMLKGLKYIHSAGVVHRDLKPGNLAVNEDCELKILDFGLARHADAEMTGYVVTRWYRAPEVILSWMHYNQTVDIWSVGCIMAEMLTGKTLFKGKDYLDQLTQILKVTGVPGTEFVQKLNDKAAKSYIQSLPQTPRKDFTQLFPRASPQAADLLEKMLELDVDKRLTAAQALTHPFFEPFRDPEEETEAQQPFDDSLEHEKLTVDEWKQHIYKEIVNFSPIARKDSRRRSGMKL
Chain of UniProt P80457 (whole entry, looked up): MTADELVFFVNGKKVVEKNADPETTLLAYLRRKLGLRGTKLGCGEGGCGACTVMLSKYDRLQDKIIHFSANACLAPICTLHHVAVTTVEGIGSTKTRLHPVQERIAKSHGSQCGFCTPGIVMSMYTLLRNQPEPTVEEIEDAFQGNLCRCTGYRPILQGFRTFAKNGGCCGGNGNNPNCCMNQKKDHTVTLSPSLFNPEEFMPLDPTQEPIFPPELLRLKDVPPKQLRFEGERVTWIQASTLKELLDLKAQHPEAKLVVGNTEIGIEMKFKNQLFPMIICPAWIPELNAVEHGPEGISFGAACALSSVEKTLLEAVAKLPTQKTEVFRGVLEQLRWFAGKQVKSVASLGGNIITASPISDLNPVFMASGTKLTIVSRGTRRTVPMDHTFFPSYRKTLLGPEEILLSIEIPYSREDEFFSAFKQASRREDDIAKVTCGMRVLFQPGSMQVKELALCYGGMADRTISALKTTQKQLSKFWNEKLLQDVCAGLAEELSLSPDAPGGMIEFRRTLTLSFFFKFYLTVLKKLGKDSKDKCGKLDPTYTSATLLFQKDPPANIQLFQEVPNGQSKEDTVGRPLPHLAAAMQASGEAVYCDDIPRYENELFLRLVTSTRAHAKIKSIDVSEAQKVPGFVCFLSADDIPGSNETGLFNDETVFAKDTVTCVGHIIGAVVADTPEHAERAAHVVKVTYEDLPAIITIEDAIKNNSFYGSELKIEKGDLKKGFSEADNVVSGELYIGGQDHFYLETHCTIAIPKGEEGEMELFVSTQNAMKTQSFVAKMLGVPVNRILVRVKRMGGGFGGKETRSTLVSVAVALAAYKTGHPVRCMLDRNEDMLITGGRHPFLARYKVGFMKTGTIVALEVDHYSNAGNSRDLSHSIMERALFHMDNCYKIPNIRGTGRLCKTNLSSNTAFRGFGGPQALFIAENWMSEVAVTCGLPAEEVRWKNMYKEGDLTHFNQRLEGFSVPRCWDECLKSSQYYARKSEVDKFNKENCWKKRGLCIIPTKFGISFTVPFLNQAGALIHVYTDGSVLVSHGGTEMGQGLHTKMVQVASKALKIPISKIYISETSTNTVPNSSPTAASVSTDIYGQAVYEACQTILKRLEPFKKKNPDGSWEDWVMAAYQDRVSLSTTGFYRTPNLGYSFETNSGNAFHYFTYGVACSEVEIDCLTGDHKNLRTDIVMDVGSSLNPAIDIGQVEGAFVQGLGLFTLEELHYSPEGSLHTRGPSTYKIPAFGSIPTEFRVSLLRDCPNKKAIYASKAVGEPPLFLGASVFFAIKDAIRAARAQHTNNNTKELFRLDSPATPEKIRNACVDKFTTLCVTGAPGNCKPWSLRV
Chain of UniProt P42338 (whole entry, looked up): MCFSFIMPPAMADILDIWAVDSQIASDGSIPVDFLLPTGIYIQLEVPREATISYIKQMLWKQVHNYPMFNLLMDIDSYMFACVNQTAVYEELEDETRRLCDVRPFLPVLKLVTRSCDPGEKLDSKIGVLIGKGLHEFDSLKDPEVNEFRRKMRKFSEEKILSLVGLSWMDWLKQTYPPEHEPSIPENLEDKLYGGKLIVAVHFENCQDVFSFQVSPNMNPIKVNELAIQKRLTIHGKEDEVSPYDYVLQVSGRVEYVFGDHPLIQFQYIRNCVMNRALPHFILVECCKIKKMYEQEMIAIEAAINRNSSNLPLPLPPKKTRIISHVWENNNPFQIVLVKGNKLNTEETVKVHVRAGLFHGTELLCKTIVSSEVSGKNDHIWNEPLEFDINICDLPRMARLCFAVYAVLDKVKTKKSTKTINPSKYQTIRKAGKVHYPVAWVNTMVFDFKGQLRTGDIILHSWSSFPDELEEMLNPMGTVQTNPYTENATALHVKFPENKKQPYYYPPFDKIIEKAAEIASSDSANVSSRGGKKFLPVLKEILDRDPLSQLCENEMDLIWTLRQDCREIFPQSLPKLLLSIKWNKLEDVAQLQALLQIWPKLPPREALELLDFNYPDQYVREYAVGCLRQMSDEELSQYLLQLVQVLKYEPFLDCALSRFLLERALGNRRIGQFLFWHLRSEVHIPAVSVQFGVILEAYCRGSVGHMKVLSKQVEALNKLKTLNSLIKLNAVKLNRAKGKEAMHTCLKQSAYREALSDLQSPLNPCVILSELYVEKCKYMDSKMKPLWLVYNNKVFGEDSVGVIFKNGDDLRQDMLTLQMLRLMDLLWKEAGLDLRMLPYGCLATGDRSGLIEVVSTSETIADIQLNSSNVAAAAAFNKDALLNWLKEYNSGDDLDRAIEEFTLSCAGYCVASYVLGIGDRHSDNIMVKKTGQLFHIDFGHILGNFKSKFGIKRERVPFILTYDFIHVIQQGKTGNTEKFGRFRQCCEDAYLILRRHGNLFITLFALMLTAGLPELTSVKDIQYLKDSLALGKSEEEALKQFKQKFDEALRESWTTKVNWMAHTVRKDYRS
Chain of UniProt Q9GZQ4 (whole entry, looked up): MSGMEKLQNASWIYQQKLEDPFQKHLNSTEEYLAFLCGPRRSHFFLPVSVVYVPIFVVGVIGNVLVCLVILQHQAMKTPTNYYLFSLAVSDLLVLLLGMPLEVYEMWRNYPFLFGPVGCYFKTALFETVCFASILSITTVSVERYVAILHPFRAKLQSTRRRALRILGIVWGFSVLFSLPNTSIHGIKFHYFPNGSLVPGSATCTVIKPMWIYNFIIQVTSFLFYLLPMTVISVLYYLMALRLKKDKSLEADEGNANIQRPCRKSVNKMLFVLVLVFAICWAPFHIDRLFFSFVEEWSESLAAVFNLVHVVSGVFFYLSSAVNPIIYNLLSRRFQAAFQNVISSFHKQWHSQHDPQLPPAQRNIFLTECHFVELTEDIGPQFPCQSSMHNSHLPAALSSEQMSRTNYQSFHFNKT
Chain of UniProt Q92993 (whole entry, looked up): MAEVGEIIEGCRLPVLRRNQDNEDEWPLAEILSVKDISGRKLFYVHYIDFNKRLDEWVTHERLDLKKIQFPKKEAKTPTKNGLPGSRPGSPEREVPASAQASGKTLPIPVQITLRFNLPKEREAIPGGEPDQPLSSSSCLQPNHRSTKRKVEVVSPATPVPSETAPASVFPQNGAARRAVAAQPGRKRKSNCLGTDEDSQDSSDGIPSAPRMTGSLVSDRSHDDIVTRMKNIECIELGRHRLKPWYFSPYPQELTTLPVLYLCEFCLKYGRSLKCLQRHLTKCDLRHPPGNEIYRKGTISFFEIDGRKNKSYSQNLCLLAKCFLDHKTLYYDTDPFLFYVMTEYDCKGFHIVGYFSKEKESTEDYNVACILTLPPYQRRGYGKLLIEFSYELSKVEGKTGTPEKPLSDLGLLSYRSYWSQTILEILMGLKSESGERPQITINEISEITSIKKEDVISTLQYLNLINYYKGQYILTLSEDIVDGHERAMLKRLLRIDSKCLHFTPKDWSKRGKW
Chain of UniProt Q12933 (whole entry, looked up): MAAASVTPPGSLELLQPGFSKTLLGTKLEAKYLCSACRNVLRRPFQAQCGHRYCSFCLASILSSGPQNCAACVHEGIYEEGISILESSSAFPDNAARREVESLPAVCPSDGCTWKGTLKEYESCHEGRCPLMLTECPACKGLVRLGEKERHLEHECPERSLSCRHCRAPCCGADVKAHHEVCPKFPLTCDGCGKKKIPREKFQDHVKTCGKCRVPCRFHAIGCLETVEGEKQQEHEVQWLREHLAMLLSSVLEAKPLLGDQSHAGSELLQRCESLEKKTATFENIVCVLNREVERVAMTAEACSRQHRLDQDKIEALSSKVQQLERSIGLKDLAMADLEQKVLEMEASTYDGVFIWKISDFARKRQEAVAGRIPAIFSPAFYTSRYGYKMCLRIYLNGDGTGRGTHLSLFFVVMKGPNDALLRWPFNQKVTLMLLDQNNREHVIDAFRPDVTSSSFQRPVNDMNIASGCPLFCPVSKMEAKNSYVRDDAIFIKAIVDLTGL
Chain of UniProt P06493 (whole entry, looked up): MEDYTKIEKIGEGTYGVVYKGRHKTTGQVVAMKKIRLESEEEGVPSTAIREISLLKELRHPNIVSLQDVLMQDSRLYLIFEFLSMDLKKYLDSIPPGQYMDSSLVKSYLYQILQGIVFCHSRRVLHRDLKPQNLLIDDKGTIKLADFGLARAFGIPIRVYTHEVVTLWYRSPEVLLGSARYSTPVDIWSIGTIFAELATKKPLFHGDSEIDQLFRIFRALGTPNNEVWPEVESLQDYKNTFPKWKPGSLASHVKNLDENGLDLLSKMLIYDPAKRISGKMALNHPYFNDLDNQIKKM

`CN(CCN1CCC(OC(=O)Nc2ccccc2-c2ccccc2)CC1)C(=O)c1ccc(CN2CCC(C(N)=O)CC2)cc1` gave an inhibition of -7% (human estrogen receptor; radioligand binding; 1 µM, together with: [3H]estradiol 1.0 nM).
`CC[C@H](C)[C@@H]1NC(=O)[C@@H]2CCCN2C(=O)[C@H](CC(C)C)NC(=O)[C@H](CC(C)C)NC(=O)CNC(=O)[C@@H](NC(=O)[C@@H](NC(=O)[C@H](CC(=O)O)NC(=O)CNC(=O)[C@@H](NC(=O)[C@H](C)NC(=O)CNC(=O)[C@H](CCCCN)NC(=O)[C@H](CC(C)C)NC(=O)[C@H](CC(C)C)NC(=O)[C@H](CCCCN)NC(=O)CNC(=O)[C@@H](NC(=O)[C@@H](N)CC(C)C)C(C)C)C(C)C)C(C)C)CSSC[C@@H](C(=O)O)NC1=O`: “log2 fold change” -1.77 (RNA-seq, refers to: Pfkfb3; mouse, traumatic brain injury model, frontal cortex and hippocampus; dose not given; baseline: TBI alone).
With `CN1C(=O)CCS(=O)(=O)C1c1ccc(Cl)cc1` (stereo not drawn) the inhibition was 0% (Genome polyprotein NS3 helicase domain; DNA binding, inhibitor; hepatitis C virus; 100 µM, together with: Cy5-dT15 DNA).
`C[C@H]1CN(c2n[nH]c3nc(N[C@H]4CC[C@H](NS(=O)(=O)CCC(F)(F)F)CC4)ncc23)CCO1` has a remaining binding of 1.08 (TNF receptor-associated factor 2 (Homo sapiens, UniProt Q12933); Kinobeads competition, refers to: TRAF2; 0.8 µM, unit not given; baseline: vehicle).
`C#Cc1n[nH]c2c(-c3cn([C@@H](C)c4ccccn4)c(=O)[nH]c3=O)cc(F)cc12` gave an inhibition of 16% (Phosphatidylinositol 4,5-bisphosphate 3-kinase catalytic subunit beta isoform, with p85 alpha (PIK3CB, Homo sapiens, UniProt P42338); kinase activity, inhibitor; 100 nM).
For `COc1ccc(N2C(=O)N(c3c(C)cccc3Cl)Cc3cnc(Nc4ccc(C5CCN(C)CC5)cc4OC)nc32)nc1`, the inhibition was 10% (PAK2 (Homo sapiens, UniProt Q13177); kinase activity; 0.5 µM).
For `CCCN(CCC)CCc1ccc(O)c(O)c1`, the inhibition was 0% (Genome polyprotein NS3 helicase domain; DNA binding, inhibitor; hepatitis C virus; 100 µM, together with: Cy5-dT15 DNA).
For `O=C(Nc1cnccc1Cl)N1CCN(Cc2ccc3c(c2)OC(F)(F)O3)CC1`, the inhibition was 14% (PHKG2; kinase activity, inhibitor; 50 µM, human).
`Cn1cccc1-c1cccnc1` gave an inhibition of 17% (ADRA1A (Homo sapiens, UniProt P35348); binding; 50 µM).
For `Cl.OCc1c[nH]cn1`, the inhibition was 0% (Genome polyprotein NS3 helicase domain; DNA binding, inhibitor; hepatitis C virus; 100 µM, together with: Cy5-dT15 DNA).
`CO[C@H]1C[C@@H]2CC[C@@H](C)[C@@](O)(O2)C(=O)C(=O)N2CCCC[C@H]2C(=O)O[C@H]([C@H](C)C[C@@H]2CC[C@@H](OC(=O)NCCOCCOCCOCCOCCOCCOCCOCCOCCC(=O)N3CCc4cc(Cn5nc(-c6ccc7oc(N)nc7c6)c6c(N)ncnc65)ccc4C3)[C@H](OC)C2)C[C@@H](O)[C@H](C)/C=C(\C)[C@@H](O)[C@@H](OC)C(=O)[C@H](C)C[C@H](C)/C=C/C=C/C=C/1C`: “deaths due to TRAEs” 0% (phase 1 dose escalation; advanced solid tumour patients; intravenous, 8 mg weekly, grade ≥3).
For `CN(C(=O)n1cnc(-c2ccc[n+]([O-])c2)c1)C1CCCCC1`, the inhibition was -6% (KATP channel, hamster; binding; 50 µM, together with: [3H]glyburide).
The inhibition of `Cc1ncc(C)n2nc(/C=C/c3nc(N4CCCC4)cc(N4CCOCC4)n3)nc12` is reported as 5% (XDH oxidase form; enzyme activity; 10 µM).
`CN1CCN(c2cc(-c3ccncc3)c(-c3ccc4ccccc4c3)nn2)CC1` gave an inhibition of -6.6% (NMUR2 (Homo sapiens, UniProt Q9GZQ4); antagonist, FLIPR; 10 µM).
`O=C(Nc1cccnn1)N1CCC(=Cc2cccc(Oc3ccc(C(F)(F)F)cn3)c2)CC1` has an inhibition of -3% (PHKG2; kinase activity, inhibitor; 50 µM, human).
With `c1ccc(C(NCCNC(c2ccccc2)c2ccccc2)c2ccccc2)cc1` the inhibition was 16% (Cyclin-dependent kinase 1, with cyclin B1 (CDK1, Homo sapiens, UniProt P06493); enzyme activity; 10 µM, Eurofins selectivity panel).
`CCOc1ccccc1C(=O)Nc1ccc(Cl)c(C(F)(F)F)c1`: “SPR binding response” 0.133 RU (KAT5 (Homo sapiens, UniProt Q92993); SPR; 0.63 µM; higher = more binding).
The Cmax reduction of `C[C@]1(CO)Cc2ncn(-c3ccc(C#N)c(Cl)c3)c2C(=O)O1` is reported as ~23% (healthy subjects; oral, 10 mg, high-fat breakfast; baseline: fasted).
The inhibition of `CC[C@H](C)[C@H](NC(=O)[C@@H](NC(=O)[C@H](N)Cc1ccccc1)C(C)C)C(=O)N[C@@H](C)C(N)=O` is reported as 70.3% (APP (Homo sapiens, UniProt P05067); amyloid-beta aggregation, thioflavin T fluorescence; 0.5 µM, 72 h, together with: 2 µM amyloid-beta).
For `COc1cc(Nc2ncc(F)c(Nc3ccc4c(n3)NC(=O)C(C)(C)O4)n2)cc(OC)c1OC`, the inhibition was 98% (MAP3K3 (Homo sapiens, UniProt Q99759); KINOMEscan; 10 µM).
`[2H]c1c([2H])c([C@]2([2H])CCCN2C(=O)C(C)(C)Oc2ccc3cn[nH]c3c2)c([2H])c([2H])c1C([2H])([2H])[2H]` gave a remaining binding of 98% (Myosin-IIIb (MYO3B, Homo sapiens, UniProt Q8WXR4); KINOMEscan; 1 µM; baseline: DMSO control).
With `O=C(Nc1cccnn1)N1CCN([C@@H]2CCOc3cc(C(F)(F)F)ccc32)CC1` the inhibition was 27% (XDH oxidase form; superoxide scavenging; 20 µM).
`N#C/C(=C\c1ccc(O)c(O)c1)C(N)=S` has an inhibition of 3% (Genome polyprotein NS3 helicase domain; DNA binding, inhibitor; hepatitis C virus; 100 µM, together with: Cy5-dT15 DNA).
`CC(=O)NC[C@H]1[C@H](O)[C@H](O)[C@@H]2[C@H](O)C[C@@H](CO)N21` has an inhibition of 13.1% (Spodoptera litura β-N-acetylglucosaminidase; crude enzyme; 0.00157 µM, run 1, together with: p-nitrophenyl GlcNAc).
With `N.N.[Cl][Pt][Cl]` the inhibition was 1% (Genome polyprotein NS3 helicase domain; DNA binding, inhibitor; hepatitis C virus; 100 µM, together with: Cy5-dT15 DNA).
With `C#C[C@]1(O)CC[C@H]2[C@@H]3CCC4=Cc5oncc5C[C@]4(C)[C@H]3CC[C@@]21C` the inhibition was > 50% (Gag polyprotein, nucleocapsid protein p7 (gag, Human immunodeficiency virus type 1 group M subtype B, UniProt P04591); NCp7-RNA binding, AlphaScreen; HIV-1; 45 µM).
Under “log2 fold change”, `Oc1ccc2c3c1O[C@H]1[C@@H](O)CC[C@@]4(O)[C@@H](C2)N(CC2CCC2)CC[C@]314` is recorded as 0.472 (MRGPRX1 (Homo sapiens, UniProt Q96LB2); β-arrestin recruitment, TANGO luminescence; concentration not given; baseline: basal luminescence).
`O=C(c1ccc(Cl)cc1)N1CCN2C(=O)N(OC(=O)N3CCOc4ccccc43)C(=O)C2C1` (stereo not drawn) — result for “median protein ratio”: 1.03 (Phospholipase A1 member A (PLA1A, Homo sapiens, UniProt Q53H76); MS-based ABPP; SW-620 conditioned medium; 10 µM, 1 h, 37 °C; baseline: compound over DMSO, lower = more inhibition).
With `CC[C@H](C)[C@H](NC(=O)[C@H](Cc1ccccc1)NC(=O)[C@H](CCC(=O)O)NC(=O)[C@H](CCCNC(=N)N)NC(=O)[C@H](C)NC(=O)[C@H](C)NC(=O)[C@H](CCC(N)=O)NC(=O)[C@H](CCC(=O)O)NC(=O)[C@H](CCC(=O)O)NC(=O)[C@H](CC(C)C)NC(=O)[C@H](Cc1ccc(O)cc1)NC(=O)[C@H](CO)NC(=O)[C@H](CO)NC(=O)[C@@H](NC(=O)[C@H](CC(=O)O)NC(=O)[C@H](CO)NC(=O)[C@@H](NC(=O)[C@H](Cc1ccccc1)NC(=O)[C@@H](NC(=O)CNC(=O)[C@H](CCC(=O)O)NC(=O)[C@H](C)NC(=O)CCc1c[nH]cn1)[C@@H](C)O)[C@@H](C)O)C(C)C)C(=O)N[C@@H](C)C(=O)N[C@@H](Cc1c[nH]c2ccccc12)C(=O)N[C@@H](CC(C)C)C(=O)N[C@H](C(=O)N[C@@H](CCCNC(=N)N)C(=O)NCC(=O)N[C@@H](CCCNC(=N)N)C(=O)N[C@@H](CCCCNC(=O)COCCOCCNC(=O)COCCOCCNC(=O)CC[C@H](NC(=O)CCCCCCCCCCCCCCCCC(=O)O)C(=O)O)C(=O)NCC(=O)NCC(=O)N[C@@H](CO)C(=O)N[C@@H](CCCCNc1c(NCCCCCN(O)C(=O)CCC(=O)NCCCCCN(O)C(=O)CCC(=O)NCCCCCN(O)C(C)=O)c(=O)c1=O)C(=O)O)C(C)C` [zirconium-89 labelled] the tissue uptake was 0.05 %ID/g (gamma counting; rat, colon content; intravenous, 3 nmol/kg, 168 h).
`Br.CCCN(CCC)[C@@H]1CCc2ccc(O)cc2C1` gave an inhibition of 0% (Genome polyprotein NS3 helicase domain; DNA binding, inhibitor; hepatitis C virus; 100 µM, together with: Cy5-dT15 DNA).
`COc1cc2c(Oc3ccc4[nH]c(C)cc4c3F)ccnc2cc1OCC1(N)CC1`: “grade 1 or 2 Leukopenia” 13.3% (paediatric recurrent refractory sarcoma; 8 mg/kg).
The uptake of `C[C@@H](O)[C@H](NC(=O)[C@@H]1CSSC[C@H](NC(=O)[C@@H](Cc2ccccc2)NC(=O)CN2CCN(CC(=O)[O-])CCN(CC(=O)[O-])CCN(CC(=O)[O-])CC2)C(=O)N[C@@H](Cc2ccc(O)cc2)C(=O)N[C@H](Cc2c[nH]c3ccccc23)C(=O)N[C@@H](CCCCN)C(=O)N[C@@H]([C@@H](C)O)C(=O)N1)C(=O)O.[177Lu+3]` is reported as 2.02% (MEC1 treated with 50 µM zebularine; gamma counter; serum-free RPMI; 120 min, 37 °C).
`O=C1C=CC(=O)C=C1` has an inhibition of 0% (Genome polyprotein NS3 helicase domain; DNA binding, inhibitor; hepatitis C virus; 100 µM, together with: Cy5-dT15 DNA).
`C[C@@H](O)[C@@H](CO)NC(=O)[C@@H](CCCNC(=N)N)NC(=O)[C@@H]1CCCN1C(=O)[C@@H]1CSSC[C@H](NC(=O)[C@H](Cc2ccccc2)NC(=O)CN2CCN(CC(=O)O)CCN(CC(=O)O)CCN(CC(=O)O)CC2)C(=O)N[C@@H](Cc2ccc(O)cc2)C(=O)N[C@@H](Cc2ccccc2)C(=O)N[C@@H](CCC(N)=O)C(=O)N[C@@H](CC(N)=O)C(=O)N1` [gallium-68 labelled] has a tissue uptake of 0.12 %ID/g (Wistar rat, bone; intravenous, 8 MBq, 30 min, group mean).
The inhibition of `FC(F)(F)c1cccc(Nc2nc(NCCOc3ccccc3)nc3[nH]cnc23)c1` is reported as 8% and 5% (MAPK13 (Homo sapiens, UniProt O15264); enzyme activity, inhibitor, Thermo Fisher kinase screening; 5 µM).
The inhibition of `O=C(O)c1cc[c]([Hg][Cl])cc1` is reported as 1.6 ± 14.1% (Trypanothione synthetase (Leishmania infantum, UniProt A4I2Z3); enzyme activity; 25 µM).

Some of these lines once more:
`C#Cc1n[nH]c2c(-c3cn([C@@H](C)c4ccccn4)c(=O)[nH]c3=O)cc(F)cc12` gave an inhibition of 16% (Phosphatidylinositol 4,5-bisphosphate 3-kinase catalytic subunit beta isoform, with p85 alpha (PIK3CB, Homo sapiens, UniProt P42338); kinase activity, inhibitor; 100 nM).
With `C#C[C@]1(O)CC[C@H]2[C@@H]3CCC4=Cc5oncc5C[C@]4(C)[C@H]3CC[C@@]21C` the inhibition was > 50% (Gag polyprotein, nucleocapsid protein p7 (gag, Human immunodeficiency virus type 1 group M subtype B, UniProt P04591); NCp7-RNA binding, AlphaScreen; HIV-1; 45 µM).
With `O=C(Nc1cccnn1)N1CCN([C@@H]2CCOc3cc(C(F)(F)F)ccc32)CC1` the inhibition was 27% (XDH oxidase form; superoxide scavenging; 20 µM).
The inhibition of `Cc1ncc(C)n2nc(/C=C/c3nc(N4CCCC4)cc(N4CCOCC4)n3)nc12` is reported as 5% (XDH oxidase form; enzyme activity; 10 µM).
`CC(=O)NC[C@H]1[C@H](O)[C@H](O)[C@@H]2[C@H](O)C[C@@H](CO)N21` has an inhibition of 13.1% (Spodoptera litura β-N-acetylglucosaminidase; crude enzyme; 0.00157 µM, run 1, together with: p-nitrophenyl GlcNAc).
